Published values gathered from unrelated publications.
Organism: Escherichia coli

CCCCCCCC(=O)N[C@@H](CCN)C(=O)N[C@H](C(=O)N[C@@H](CCN)C(=O)N[C@H]1CCNC(=O)[C@H]([C@@H](C)O)NC(=O)[C@H](CCN)NC(=O)[C@H](CCN)NC(=O)[C@H](CC(C)C)NC(=O)[C@@H](Cc2ccc(F)cc2)NC(=O)[C@H](CCN)NC1=O)[C@@H](C)O
MIC (broth microdilution; ATCC 25922, colistin-susceptible): 0.03 to 0.06 µg/mL

CC[C@H](C)[C@H](NC(=O)[C@@H](CCCNC(=N)N)NC(=O)[C@H](CCCNC(=N)N)NC(=O)[C@H](CCCN)NC(=O)[C@H](Cc1c[nH]c2ccccc12)NC(=O)[C@H](CCCNC(=N)N)NC(=O)[C@@H]1CCCN1C(=O)[C@H](CCCNC(=N)N)NC(=O)[C@@H]1CCCN1C(=O)[C@H](CC(C)C)NC(=O)[C@H](Cc1ccc(O)cc1)NC(=O)[C@@H]1CCCN1C(=O)[C@@H]1CCCN1C(=O)[C@H](CCCCN)NC(=O)[C@H](CC(=O)O)NC(=O)[C@@H](N)C(C)C)C(=O)N[C@@H](Cc1ccc(O)cc1)C(=O)N[C@@H](CC(N)=O)C(=O)N[C@H](CCCNC(=N)N)C(N)=O
MIC (broth microdilution; MC4100; 18 h, 37 °C, 25% MHB2): 8 µg/mL

CC[C@H](C)[C@H](NC(=O)[C@@H](NC(=O)[C@H](CCCCN)NC(=O)[C@H](CCC(N)=O)NC(=O)[C@@H](NC(=O)[C@H](Cc1c[nH]c2ccccc12)NC(=O)[C@H](CCCCN)NC(=O)[C@H](CCCCN)NC(=O)[C@H](CC(C)C)NC(=O)[C@H](CCCNC(=N)N)NC(=O)[C@H](Cc1ccccc1)NC(=O)[C@@H](N)C(C)C)[C@@H](C)CC)C(C)C)C(N)=O
MIC (24 h, 37 °C, Mueller-Hinton broth, NaCl 150 mM): 128 µM

C#CCNC(=O)C(C)(C)O/N=C(\C(=O)N[C@@H]1C(=O)N(S(=O)(=O)O)[C@H]1C)c1csc(N)n1
MIC (agar dilution; CDC 1001728 NDM-1): 16 µg/mL

O=C(NCc1ccccc1)C(CCc1ccccc1)N(CCc1c[nH]cn1)C(=O)c1ccccc1 (racemic)
MIC (TolC): 128 µM

c1ccc(CCNC2CCCc3c2[nH]c2ccc(C4CCCCC4)cc32)cc1 (centres unmarked)
MIC (broth microdilution; O-19592): > 128 µg/mL

CC(C)C[C@@H](NC(=O)[C@@H](CCCNC(=N)N)NC(=O)[C@H](N)CCCNC(=N)N)C(=O)N[C@H](CC(C)C)C(=O)N[C@H](CCCNC(=N)N)C(=O)N[C@H](CCCCN)C(=O)N[C@H](CC(C)C)C(=O)N[C@H](CCCCN)C(=O)NCC(=O)N[C@H](CCCCN)C(=O)N[C@H](CCCCN)C(=O)N[C@H](CC(C)C)C(=O)N[C@H](Cc1ccc(O)cc1)C(=O)N[C@H](CC(C)C)C(=O)N[C@H](Cc1ccc(O)cc1)C(=O)N[C@H](Cc1ccccc1)C(=O)N[C@H](CCCCN)C(=O)N[C@H](CC(C)C)C(=O)N[C@H](CCC(N)=O)C(=O)N[C@H](CC(C)C)C(=O)N[C@H](CC(C)C)C(=O)N[C@H](CCCCN)C(=O)N[C@H](CCCCN)C(N)=O
MIC (broth microdilution; KCTC 1682, Mueller-Hinton broth; together with: FeCl3 4 µM): 16 µM

CC[C@H](C)[C@H](NC(=O)[C@H](CCCCN)NC(=O)[C@@H](NC(=O)[C@@H](NC(=O)[C@H](CC(C)C)NC(=O)[C@H](CCCNC(=N)N)NC(=O)[C@@H](NC(=O)[C@H](CC(C)C)NC(=O)[C@H](CCCNC(=N)N)NC(=O)CNC(=O)[C@H](Cc1ccccc1)NC(=O)[C@@H](N)CCCNC(=N)N)[C@@H](C)CC)[C@@H](C)CC)C(C)C)C(=O)N[C@@H](C)C(=O)N[C@@H](CCCNC(=N)N)C(=O)N[C@@H](CCCNC(=N)N)C(=O)N[C@@H](C)C(=O)N[C@@H](Cc1c[nH]cn1)C(=O)N[C@@H](CCCNC(=N)N)C(=O)N[C@@H](C)C(=O)N[C@@H](CCCNC(=N)N)C(=O)N1CCC[C@H]1C(=O)N[C@@H](C)C(=O)N[C@H](C(=O)N[C@@H](CCCCN)C(=O)N[C@@H](C)C(=O)N[C@@H](C)C(=O)N[C@@H](CO)C(=O)N[C@@H](CC(N)=O)C(=O)N[C@H](C(=O)N[C@@H](C)C(=O)N[C@@H](CCC(=O)O)C(=O)N[C@@H](CC(C)C)C(=O)N[C@@H](C)C(=O)N[C@@H](Cc1c[nH]cn1)C(=O)NCC(=O)N[C@@H](CCC(=O)O)C(N)=O)C(C)C)C(C)C
MIC (bacterial growth, broth microdilution; cation-adjusted Mueller Hinton broth; 18 h, 37 °C): 4 µM

CC[C@H](C)[C@H](NC(=O)[C@@H](CCCNC(=N)N)NC(=O)[C@H](CCCNC(=N)N)NC(=O)[C@@H]1CCCN1C(=O)[C@@H]1CCCN1C(=O)[C@H](CCCNC(=N)N)NC(=O)[C@@H]1CCCN1C(=O)[C@H](CCCNC(=N)N)NC(=O)[C@@H]1CCCN1C(=O)[C@H](CC(C)C)NC(=O)[C@H](Cc1c[nH]c2ccccc12)NC(=O)[C@@H]1CCCN1C(=O)[C@@H]1CCCN1C(=O)[C@H](CCCCN)NC(=O)[C@H](CC(=O)O)NC(=O)[C@@H](N)C(C)C)C(=O)N[C@@H](Cc1ccc(O)cc1)C(=O)N[C@@H](CC(N)=O)C(=O)N[C@H](CCCNC(=N)N)C(N)=O
MIC (broth microdilution; MC4100; 18 h, 37 °C, 25% MHB2): 4 µg/mL

CC[C@H](C)[C@H](NC(=O)[C@H](Cc1c[nH]c2ccccc12)NC(=O)[C@H](CCCNC(=N)N)NC(=O)[C@@H](N)CCCNC(=N)N)C(=O)N[C@@H](CCCNC(=N)N)C(=O)N[C@@H](Cc1c[nH]c2ccccc12)C(=O)N[C@H](C(=O)N[C@H](C(N)=O)[C@@H](C)O)[C@@H](C)CC
MIC (25922): 16 µg/mL

CSCC[C@H](NC=O)C(=O)N[C@@H](CCCNC(=N)N)C(=O)N[C@H](C(=O)NCC(=O)N[C@@H](CC(N)=O)C(=O)N[C@@H](C)C(=O)N[C@@H](CC(N)=O)C(=O)NCC(=O)N1CCN(c2ccc(N3C[C@H](CNC(C)=O)OC3=O)cc2F)CC1)[C@@H](C)O
MIC (broth dilution; K12 MG1655 efflux knock-out): ~4.4 µM

CC[C@H](C)[C@H](NC(=O)[C@@H](CCCNC(=N)N)NC(=O)[C@H](CCCNC(=N)N)NC(=O)[C@@H]1CCCN1C(=O)[C@@H]1CCCN1C(=O)[C@H](CCCNC(=N)N)NC(=O)[C@@H]1CCCN1C(=O)[C@H](CCCNC(=N)N)NC(=O)[C@@H]1CCCN1C(=O)[C@H](CC(C)C)NC(=O)[C@H](Cc1ccc(O)cc1)NC(=O)[C@H](Cc1c[nH]cn1)NC(=O)[C@@H]1CCCN1C(=O)[C@H](CCCCN)NC(=O)[C@H](CC(=O)O)NC(=O)[C@@H](N)C(C)C)C(=O)N[C@@H](Cc1ccc(O)cc1)C(=O)N[C@@H](CC(N)=O)C(=O)N[C@H](CCCNC(=N)N)C(N)=O
MIC (broth microdilution; MC4100; 18 h, 37 °C, 25% MHB2): 8 µg/mL

CC[C@H](C)[C@H](NC(=O)[C@@H](NC(=O)[C@H](CCCCN)NC(=O)[C@H](CCCCN)NC(=O)[C@@H](NC(=O)[C@H](Cc1c[nH]c2ccccc12)NC(=O)[C@H](CCCCN)NC(=O)[C@@H](NC(=O)[C@H](CC(C)C)NC(=O)[C@H](CCCCN)NC(=O)[C@H](CCCCN)NC(=O)[C@@H](N)C(C)C)[C@@H](C)CC)[C@@H](C)CC)C(C)C)C(N)=O
MIC (24 h, 37 °C, Mueller-Hinton broth, human serum 10%): 32 µM

CC[C@H](C)[C@H](NC(=O)[C@@H](CCCNC(=N)N)NC(=O)[C@H](CCCNC(=N)N)NC(=O)[C@@H]1CCCN1C(=O)[C@@H]1CCCN1C(=O)[C@H](CCCNC(=N)N)NC(=O)[C@@H]1CCCN1C(=O)[C@H](CCCNC(=N)N)NC(=O)[C@@H]1CCCN1C(=O)[C@H](CC(C)C)NC(=O)[C@H](Cc1ccc(O)c([N+](=O)[O-])c1)NC(=O)[C@@H]1CCCN1C(=O)[C@@H]1CCCN1C(=O)[C@H](CCCCN)NC(=O)[C@H](CC(=O)O)NC(=O)[C@@H](N)C(C)C)C(=O)N[C@@H](Cc1ccc(O)cc1)C(=O)N[C@@H](CC(N)=O)C(=O)N[C@H](CCCNC(=N)N)C(N)=O
MIC (broth microdilution; ATCC 25922; 18 h, 37 °C, 25% MHB2): 16 µg/mL

O=C(O)C(S)c1ccccc1 (centres unmarked)
MIC (NDM-1 producing; compound alone): > 2000 µM

CC[C@H](C)[C@H](NC(=O)[C@@H](CCCNC(=N)N)NC(=O)[C@H](CCCNC(=N)N)NC(=O)[C@@H]1CCCN1C(=O)[C@@H]1CCCN1C(=O)[C@H](CCCNC(=N)N)NC(=O)[C@@H]1CCCN1C(=O)[C@H](CCCNC(=N)N)NC(=O)[C@@H]1CCCN1C(=O)[C@H](CC(C)C)NC(=O)[C@H](Cc1ccc(O)cc1)NC(=O)[C@@H]1CCCN1C(=O)[C@@H]1CCCN1C(=O)[C@H](CCCCN)NC(=O)[C@H](CC(=O)O)NC(=O)[C@@H](N)C(C)C)C(=O)N[C@@H](Cc1ccc(O)c([N+](=O)[O-])c1)C(=O)N[C@@H](CC(N)=O)C(=O)N[C@H](CCCNC(=N)N)C(N)=O
MIC (broth microdilution; ATCC 25922; 18 h, 37 °C, 25% MHB2): 16 µg/mL

CC(C)(O/N=C(\C(=O)N[C@@H]1C(=O)N(OS(=O)(=O)O)C1(C)C)c1nsc(N)n1)C(=O)O
MIC (agar dilution; 08-85, mcr-1): 32 µg/mL

CCn1c(-c2ccc(Br)cc2)c(-c2ccc(Br)cc2)n(CC)c1=[Se]
MIC (broth microdilution; carbapenem-resistant BAA-2140; 24 h): > 40 µM

CC(C)[C@H](NC(=O)[C@H](CCCNC(=N)N)NC(=O)[C@H](Cc1ccccc1)NC(=O)[C@H](CS)NC(=O)[C@H](Cc1c[nH]c2ccccc12)NC(=O)[C@@H](N)CCCCN)C(=O)N[C@@H](CS)C(=O)N[C@@H](Cc1c[nH]c2ccccc12)C(=O)N[C@@H](CCCNC(=N)N)C(=O)N[C@@H](Cc1c[nH]c2ccccc12)C(=O)N[C@@H](Cc1ccccc1)C(=O)N[C@@H](CS)C(=O)N[C@@H](Cc1c[nH]c2ccccc12)C(=O)N[C@@H](CCCNC(=N)N)C(=O)N[C@@H](CCCCN)C(=O)N[C@@H](CS)C(=O)N[C@@H](CCCNC(=N)N)C(=O)O
MIC (broth microdilution; K88, Mueller-Hinton broth; 37 °C): 35.2 µg/mL

CN[C@@H]1[C@H](O)[C@H](NC)[C@H]2O[C@]3(O)[C@H](O[C@@H]2[C@H]1O)O[C@H](C)C[C@H]3NC(=O)Cc1cc(Cl)ccn1
MIC (microbial growth, broth dilution; K12): > 200 µg/mL

For quick reference, copied from above:
CSCC[C@H](NC=O)C(=O)N[C@@H](CCCNC(=N)N)C(=O)N[C@H](C(=O)NCC(=O)N[C@@H](CC(N)=O)C(=O)N[C@@H](C)C(=O)N[C@@H](CC(N)=O)C(=O)NCC(=O)N1CCN(c2ccc(N3C[C@H](CNC(C)=O)OC3=O)cc2F)CC1)[C@@H](C)O
MIC (broth dilution; K12 MG1655 efflux knock-out): ~4.4 µM

CC[C@H](C)[C@H](NC(=O)[C@@H](CCCNC(=N)N)NC(=O)[C@H](CCCNC(=N)N)NC(=O)[C@@H]1CCCN1C(=O)[C@@H]1CCCN1C(=O)[C@H](CCCNC(=N)N)NC(=O)[C@@H]1CCCN1C(=O)[C@H](CCCNC(=N)N)NC(=O)[C@@H]1CCCN1C(=O)[C@H](CC(C)C)NC(=O)[C@H](Cc1ccc(O)cc1)NC(=O)[C@H](Cc1c[nH]cn1)NC(=O)[C@@H]1CCCN1C(=O)[C@H](CCCCN)NC(=O)[C@H](CC(=O)O)NC(=O)[C@@H](N)C(C)C)C(=O)N[C@@H](Cc1ccc(O)cc1)C(=O)N[C@@H](CC(N)=O)C(=O)N[C@H](CCCNC(=N)N)C(N)=O
MIC (broth microdilution; MC4100; 18 h, 37 °C, 25% MHB2): 8 µg/mL
